Measurements collected from several papers.
Numbered parts are unrelated; each lists some results of a single study. Changes are numbered by the printed parent chain.

Set 1
Target: Centromere-binding protein 1, full length, His-tagged (CBF1, Saccharomyces cerevisiae, UniProt P17106, residues 1-351)
Chain of UniProt P17106 (whole entry, looked up): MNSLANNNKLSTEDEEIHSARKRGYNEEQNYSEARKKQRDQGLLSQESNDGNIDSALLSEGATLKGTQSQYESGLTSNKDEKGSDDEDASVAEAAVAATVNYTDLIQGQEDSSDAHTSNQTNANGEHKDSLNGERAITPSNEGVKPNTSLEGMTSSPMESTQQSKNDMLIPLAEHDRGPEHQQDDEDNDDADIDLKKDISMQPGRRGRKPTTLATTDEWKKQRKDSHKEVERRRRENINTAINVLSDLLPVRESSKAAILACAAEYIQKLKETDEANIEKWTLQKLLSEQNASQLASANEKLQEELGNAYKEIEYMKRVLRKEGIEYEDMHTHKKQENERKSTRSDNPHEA
Method: competition protein-binding microarray
Molecule type: double-stranded DNA, one strand shown
Matrix: in vitro
Tested at: 2 µM
Setting: whole 60-bp probe, lowest competitor level
Added: Pho4 competitor, 0.05 µM
Reading: higher = stronger binding
Shared flanks, not repeated: … GTCTTGATTCGCTTGACGCTGCTG
`GCTAATCGGCTATTTGACATGATGTCTTCCTTTCCT` gave a fluorescence intensity of 64.8 a.u.
With `TCACCAGACAAATATCACCTGGAACCACATCTTTTG` the fluorescence intensity was 81.2 a.u.
The fluorescence intensity of `GGTAATGACATTCGTCACGTGCTTTAGGGCTTGGTG` is reported as 6030 a.u.
The fluorescence intensity of `ATAATTGTGTACCGACACGTGCAAATTTGGTACGAA` is reported as 1910 a.u.
The fluorescence intensity of `TGAAGGATTTGTCCACACGTGGAATCAACATATCTG` is reported as 465 a.u.
With `ATTCAAGCCGGTGAACATGTGGAGGTTAACGGTTCC` the fluorescence intensity was 97.1 a.u.
For `CTAACGAAGGTTTGCGGCGTGGGTGACAAGCCAAGT`, the fluorescence intensity was 58.1 a.u.
`CTTTTATGATCGAGTCACCTGACGAACCATTCTTGA` gave a fluorescence intensity of 1830 a.u.
`AAAGCGGTAATTTGTCAGGTGGGTGCAGATATCTAT` gave a fluorescence intensity of 205 a.u.
`CGGGGTTAAGTTTGTTTGGTGGGTGGCTTGCAGCAG` has a fluorescence intensity of 80.6 a.u.
The fluorescence intensity of `GATTGACCAATTCGGCACGTGTATATTTCGTTGACC` is reported as 1870 a.u.
With `TTTCCAGTTAGGTACCATGTGGCATGCTGTTTTTCC` the fluorescence intensity was 113 a.u.
For `ATGTACAGTGGTACCCTCGTGTCCTCTGCAGCGAGA`, the fluorescence intensity was 88.8 a.u.
`GTACTGGAATTGTATGCCAAACTTTGCCGGGAAAAC` has a fluorescence intensity of 69.7 a.u.
The fluorescence intensity of `CTAGATGATAACCGACACGGGTTGGAAGACGGAAAT` is reported as 79.7 a.u.

Set 2
Target: Sal-like protein 4, full length isoform B (SALL4, Homo sapiens, UniProt Q9UJQ4-2, residues 1-616)
Method: universal PBM
Molecule type: double-stranded DNA, one strand shown
Matrix: in vitro
Tested at: not given
Setting: 8-mer, flanks averaged, mean of replicates
Reading: higher = stronger binding
Target sequence (chain): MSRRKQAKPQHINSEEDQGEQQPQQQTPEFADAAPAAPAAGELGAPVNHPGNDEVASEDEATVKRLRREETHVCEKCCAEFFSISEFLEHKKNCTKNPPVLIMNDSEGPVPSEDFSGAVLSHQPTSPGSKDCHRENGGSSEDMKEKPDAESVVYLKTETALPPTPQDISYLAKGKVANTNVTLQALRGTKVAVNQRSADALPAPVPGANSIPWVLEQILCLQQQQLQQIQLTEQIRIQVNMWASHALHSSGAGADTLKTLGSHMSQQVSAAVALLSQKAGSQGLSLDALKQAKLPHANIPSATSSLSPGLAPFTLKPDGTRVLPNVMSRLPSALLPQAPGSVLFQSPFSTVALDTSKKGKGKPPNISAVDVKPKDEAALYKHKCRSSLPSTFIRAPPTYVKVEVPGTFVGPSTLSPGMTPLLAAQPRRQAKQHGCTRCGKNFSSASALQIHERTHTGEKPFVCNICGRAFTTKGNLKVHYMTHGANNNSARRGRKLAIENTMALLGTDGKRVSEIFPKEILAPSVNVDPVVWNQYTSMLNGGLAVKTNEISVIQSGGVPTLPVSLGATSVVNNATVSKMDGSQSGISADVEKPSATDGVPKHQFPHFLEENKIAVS
For `GTTGAGCA`, the E-score was -0.0493.
`AATCGGTC` gave an E-score of -0.0867.
The E-score of `CAAAGCGG` is reported as -0.175.
The E-score of `ACCGGTCA` is reported as -0.179.
The E-score of `GGTGGAAC` is reported as -0.00806.
The E-score of `GGGTGACC` is reported as -0.237.
With `GCCCACGC` the E-score was -0.329.
With `GTCGCTTA` the E-score was -0.0605.
`AAATTCGA` has an E-score of 0.221.
With `AGTTGCAA` the E-score was 0.0588.
The E-score of `GAACACTA` is reported as 0.156.
For `AAGTCGGG`, the E-score was -0.112.
`ACGGCTCT` gave an E-score of -0.147.
The E-score of `CGGGGGGA` is reported as -0.332.
`CGTGCGTC` has an E-score of -0.118.
The E-score of `TATTTGGA` is reported as 0.152.
With `CGATCGCC` the E-score was -0.156.
The E-score of `ACGTCCCA` is reported as -0.0342.

Set 3
Target: Fragile X messenger ribonucleoprotein 1, C-terminal low-complexity region (Fmr1, Mus musculus, UniProt P35922)
Method: RNA Bind-n-Seq
Molecule type: RNA
Matrix: in vitro
Tested at: 200 nM
Setting: whole 134-nt RNA, ends assumed
Added: 150 mM LiCl
Reference: input library
Reading: higher = stronger binding
All molecules: 7-deaza-guanosine replaces G
Shared flanks, not repeated: GGGAGUUCUACAGUCCGACGAUC … UGGAAUUCUCGGGUGUCAAGG
For `CCUCAAGUCCUGUGCUACACAUCGUAUGUACCGAAUCGGUUGGGUUGGGUUGGAAAGUAUUAUGUUACGCCGUUCGGAUCUGCACUUCCA`, the log2 enrichment was -0.351.
With `CACAGACAACACGCACCCACACAGACACAGAGGGAAGGGGUUGGGAUGGGGACAGCGUGCACAGCAGGGCGGGGUAGGACCCCAGCCCCU` the log2 enrichment was -0.691.
The log2 enrichment of `ACCAUGCAGGUGGGCAUCUUUGGGAAGUGGGGCAAGGGGGGGAUAGGGAGGGGGGUAACACUUUUGGAACAGGUGGUCCCAGGUCGUUUC` is reported as 1.38.
The log2 enrichment of `UAACUUUAGAGGAGGAUCUGAUGGAUAAGGCAGUGGACGUGGAUUUGGGGAUGGCUAUAAUGGGUAUGGAGGAGGACCUGGAGGUGGCAA` is reported as 0.0263.
For `GCAAGAAGUAAAAACAAAUGGAAAUGCUUCGGAUAGUGGCAGGGGUGGGGGUUGCUAAGGAAAGGGUGGGAUGGGAGUGGGUAAAGAGUU`, the log2 enrichment was 1.31.
`UGGCCCUGGUGGCAUGCGGGGAGGAAGAGGUGGCCUCAUGGAUCGUGGUGGUCGCGGUGGAAUGUUCAGAGGUGGCCGUGGUGGAGACAG` gave a log2 enrichment of 0.211.
For `UGGCCCUGGUGGCAUGCGGGGAGCAAGAGGUGGCCUCAUGGAUCGUGGUGGUCCCGGUGGAAUGUUCAGAGGUGGCCGUGGUGGAGACAG`, the log2 enrichment was 0.174.
`ACCAUGCAGGUGGGCAUCUUUUGGAAGUGGGGCAAGGGGGGGAUAGGGAGGGGGGUAACACUUUGGGAACAGGUGGUCCCAGGUCGUUUC` gave a log2 enrichment of 1.31.
`UCAUUGCAUGAAAAGUGGAAAAGUUUAGAUCUAUGGAAACAGAACUGUUGCCUAUAUGGAAAAUCAGUGCCUUGUGGCAAUACAGGUAAG` gave a log2 enrichment of -2.66.

Set 4
Target: RNA binding protein fox-1 homolog 2, RRM domain, GST-SBP tag (RBFOX2, Homo sapiens, UniProt O43251-10, residues 100-194)
Method: RNA Bind-n-Seq
Molecule type: RNA
Matrix: in vitro
Tested at: 365 nM
Setting: natural RNA segment, single round, ends assumed
Reference: no-protein control
Reading: higher = stronger binding
Shared flanks, not repeated: GGGAGUUCUACAGUCCGACGAUC … UGGAAUUCUCGGGUGCCAA
Construct (chain): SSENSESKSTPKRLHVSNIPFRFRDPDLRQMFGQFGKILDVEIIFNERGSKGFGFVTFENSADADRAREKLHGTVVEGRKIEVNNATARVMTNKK
For `UCUAAGGGCAAACAUUUUUCCAAGUCUUGCCAUAUUUCAAGCAAAGAGGUGCCCAGGCCUGAGGUACUCACAUAAAUGCUUUGUUUUGCUGGUGAUUUAACCAGUGCUUG`, “RBNS enrichment (R)” read 0.657.
`CACAGUUCUGUAGACAUCACUACACCGAUGUAGUUUCUCAAAUUUUAGCAAUAUGCUCUACAUAAAAUCACUACAGAGAUACUAGUGGGGAAGACGAUUAACACACCUCU` — result for “RBNS enrichment (R)”: 0.313.
Under “RBNS enrichment (R)”, `UGUGUAUGCGCGUGUGUGCGUGUGUGUGUUUUAAUUUUCUUUAUGGAAAAUGGACAAAAAAUAGAGAGAGAGGUAUUUAACUGCAAUAAACUGGCCAGUGUGGCCCCGCC` is recorded as 0.404.
For `GAAUUUGUCUUGUCAUCUUUUAGAGUAAACUAAAAAUUGUAUAGUGUCUGCAAACACUACCCUACCUAAAUCCAGCCUCUAAGGUCUCACUGGUGUGGAAUUAAACUCUU`, “RBNS enrichment (R)” read 0.439.
`CCAGCAGAGCCCCCAGGGCCAGGCCCCACCCACCUGCCACCUGUCCUCCCUGGGACACUUGUAAGUACAAAGCUCCCCAGCCUUUGAGGCCUCAACCCCCCACCAUCUGU`: “RBNS enrichment (R)” 0.506.
`CUUUACAGUGGACUCGGCCACUGUGCAUAGGCUUCUCUGCUCUCCAUCAAAUCACUUCCACUUUCCUGUGCCCCCACCCCCGCCUCCAGUUUUCCGCUAGUAUCCGGCAA` — result for “RBNS enrichment (R)”: 0.905.
`AGCAGAGUUUGCAGCGCUGAUGUGUGAGCUGGCAGAGCAGAAUCACUCUUCAAGCGCUUGCUCUUACAGGCAGACAUCGUUUUCUCUCUAAAUUCAGUAGCAGUUUCAUC` — result for “RBNS enrichment (R)”: 0.725.
For `UCUUUCCUAUAUAAUGAAUAGAUGAGUGAAAGGAGUUUUCUUUUUCUCUUUAGUACUUACGUAUUGGGAUUCCUGUGUCUUACAGCUCUCCCUCUCCAAAUAAUACACAG`, “RBNS enrichment (R)” read 0.392.
For `GGUAGCAUCAGGUAUUGACAGGGAUCUGAAUCCCAAAGCAGAGAGAGAGGUCCAACCCCGUGUGGCCAGGCAGUGGCCCCUCACUCUUGCUUAGUGUCCAUCUCAUUUCU`, “RBNS enrichment (R)” read 0.474.
For `GACUUCAAGUCUCAUUUUAUCUGAAAGGUUUUUUUCUCAUUUAAUCUGAUGUGGCAUUUUCGUCAUCUGAAGCAUGAGUGACAAGUUGGGAAUGAUGUGGUGAUUUAGAA`, “RBNS enrichment (R)” read 0.834.
For `CUCGGCGCUCCUUGUGUGGAGGCCAUUCUUUUUUCAAUGGGUAUCACAUGGUUUUGCCAUCCCUAAGUGAACAUCAUUCUGUCUUUGCUCAUGAGCUGGUCUAAUGCAGU`, “RBNS enrichment (R)” read 0.403.
Under “RBNS enrichment (R)”, `CUUUAUUGAGAUGUAUCAUGUAUUGAAUGAGUGAACCAGAAAAUUAGAAGAUGGUCAAAAAAAGUCCAAGUUACCAAUUUUUUAAAAUUUAUAGGCAAAGUAUCAAAUUG` is recorded as 5.89.

Set 5
Target: CCNB1, cyclin fold, Cln2 fusion (human)
Method: yeast growth competition, sequencing
Matrix: yeast
Setting: strong parent motif
Reference: not given
Reading: higher = stronger binding
Starting sequence: BRCA2 docking peptide (human); PSIKRNLLNEFDR
Under “normalised enrichment score”, `PDIKRNLLNEFDR [S2D]` is recorded as 2.76.
`PSIFRNLLNEFDR [K4F]` — result for “normalised enrichment score”: 2.02.
Under “normalised enrichment score”, `PSIKKNLLNEFDR [R5K]` is recorded as 1.79.
For `PSIKRNVLNEFDR [L7V]`, “normalised enrichment score” read 0.72.
Under “normalised enrichment score”, `PSIKRNLLNERDR [F11R]` is recorded as 0.483.
Under “normalised enrichment score”, `PSIKRNLLNEFDA [R13A]` is recorded as 3.43.
`PSIKRNFLNEFDR [L7F]`: “normalised enrichment score” -0.0126.
`PSIKRNLLNEFDF [R13F]`: “normalised enrichment score” 2.81.
`PSIKVNLLNEFDR [R5V]`: “normalised enrichment score” 1.24.
For `PSIKFNLLNEFDR [R5F]`, “normalised enrichment score” read -2.61.
For `PSIKRNLLNPFDR [E10P]`, “normalised enrichment score” read 0.432.
`PSIKRNLVNEFDR [L8V]` — result for “normalised enrichment score”: 1.35.
For `PSIKRNLLNEADR [F11A]`, “normalised enrichment score” read 1.52.
`PPIKRNLLNEFDR [S2P]` — result for “normalised enrichment score”: 2.3.
`PSIKRNLLNEFKR [D12K]`: “normalised enrichment score” 0.937.
`PSIKRNLLREFDR [N9R]` — result for “normalised enrichment score”: 2.16.
Under “normalised enrichment score”, `PSNKRNLLNEFDR [I3N]` is recorded as 0.375.
